# Measurements pooled from the literature.
# Target: 3-phosphoinositide-dependent protein kinase 1 (PDPK1, Homo sapiens, UniProt O15530)
Compound,assay,test system,conditions,scale,quantity,value
C=CC(=O)Nc1cccc(-c2cnc3[nH]cc(C(=O)NC(C)(C)C)c3n2)c1,"enzyme activity, inhibitor",,0.1 µM,,inhibition,12%
COc1ccc(NC(=O)Nc2ccc3c(c2)C(=O)N(C(C)CO)CC(C)C(CN(C)Cc2ccc4c(c2)OCO4)O3)cc1 (centres unmarked),"binding, competition with immobilised ligand",,10 µM,,remaining binding,48%
Nc1ncc2c(n1)-c1c([nH]c3ccc(C4=CCOCC4)cc13)CCC2,"binding, competition with immobilised ligand",,1 µM,,remaining binding,100%
Nc1ncc(-c2cc(-c3cnn(CC(F)(F)F)c3)ncc2F)nc1C(=O)NC1CNCC(F)C1 (centres unmarked),enzyme activity,,1 µM,relative to: DMSO control,remaining activity,98.2%
Cc1cccc(-c2ccc3nc(NC(=O)C4CCCO4)nn3c2)c1 (centres unmarked),"enzyme activity, Dundee kinase panel",,10 µM,,remaining activity,96%
COc1cc(Nc2nccc(-c3cnn4nc(OC)ccc34)n2)cc(C(F)(F)F)c1,"binding, competition with immobilised ligand",,1 µM,,remaining binding,96%
Cc1ccc(-c2c(/C=C(\C#N)C(=O)NC(C)C)n(CCCO)c3ncnc(N)c23)cc1,"cell-free assay, competition with immobilised ligand",,1 µM,,remaining binding,100%
Nc1nc(Nc2ccccc2)sc1C(=O)c1ccccc1,"enzyme activity, inhibitor",,10 µM,,remaining activity,64%
c1ccc2c(Nc3cc(C4CCC4)[nH]n3)nc(Nc3ccc4nc[nH]c4c3)nc2c1,"enzyme activity, inhibitor",,0.25 µM,,remaining activity,56%
Cc1cccc(-c2ccc3nc(NC(=O)C4CCOCC4)nn3c2)c1,"enzyme activity, Dundee kinase panel",,10 µM,,remaining activity,103%
Cc1cccc(O[C@H]2CCC[C@@H](C(C)CNCc3ccncc3)C2)c1 (relative stereo),"enzyme activity, inhibitor",,10 µM,,inhibition,-9%
O=C=[N][Ru-4]123([n]4c5ccc(O)cc5c5c6c(c7cc(F)c[n+]1c7c54)C(=O)NC6=O)[S+]1CC[S+]2CC[S+]3CC1 (centres unmarked),enzyme activity,,"100 nM, human enzyme, added: 10 µM ATP",relative to: untreated,remaining activity,24%
CN1CC[C@@H](COc2cnc(C#N)cc2-c2ccn3nc(NC(=O)C4CC4)cc3c2)C1,"enzyme activity, inhibitor",,1 µM,,inhibition,13%
NC(=O)[C@@H](O)C[C@H]1CCc2sc3ncnc(O[C@H]4CC[C@H](N5CCOCC5)CC4)c3c21,"enzyme activity, inhibitor",,10 µM,,inhibition,0%
CNC(=O)C1CCN(c2cc(C)c(F)cc2NC(=O)c2ccc(-c3cc(O)ccc3C)c(C)c2)CC1,"binding, competition with immobilised ligand",,1 µM,,remaining binding,60%
O=C(Cc1ccc(OCc2ccccc2)cc1)NC1(C(=O)O)CCN(C(=O)c2ccc(-c3cccc(Cl)c3)cc2)CC1,"enzyme activity, inhibitor",,10 µM,,activity vs control,106%
COc1c(Cl)cccc1Nc1c(-c2ccncc2C#C[C@@]2(C)CCCN2C(=O)/C=C/CN(C)C)[nH]c2c1C(=O)NCC2,"binding, competition with immobilised ligand",,3 µM,,remaining binding,94%
CS(=O)(=O)Nc1cccc(-c2csc3cnc(Nc4ccc(N5CCN(CCCCCOc6cccc7c6C(=O)N(C6CCC(=O)NC6=O)C7=O)CC5)cc4)nc23)c1 (centres unmarked),"probe labelling, inhibitor, KiNativ chemoproteomics",MOLT-4,1 µM,,inhibition,-3.27%
Cc1nc2c(F)cc(-c3nc(Nc4ccc(CNC(=O)CCCCCCC(=O)NO)cc4)ncc3F)cc2n1C(C)C,"enzyme activity, inhibitor",,1 µM,,inhibition,68%
CN1CCN(Cc2ccc(NC(=O)c3cccc(C#Cc4cnc(N)c5ncccc45)c3)cc2C(F)(F)F)CC1,"cell-free assay, competition with immobilised ligand",,0.5 µM,,remaining binding,60%
O=c1c(-c2ccc(Cl)c(CN3CCOCC3)c2)coc2cc(O)ccc12,"enzyme activity, inhibitor",,1 µM,,remaining activity,89%
C=CC(=O)N1CCc2ccc(-n3c(=O)ccc4cnc5ccc(-c6cnn(C)c6)cc5c43)cc21,KINOMEscan,,1 µM,relative to: DMSO control,remaining binding,94%
CC(C)=CC1OC(C)(C)C2C=C3C(=O)C(Cl)=CC(O)C3C3C(O)C4OC4C(=O)C132 (centres unmarked),"cell-free assay, competition with immobilised ligand",,10 µM,,remaining binding,100%

# Some of these lines once more:
Compound,assay,test system,conditions,scale,quantity,value
Nc1ncc(-c2cc(-c3cnn(CC(F)(F)F)c3)ncc2F)nc1C(=O)NC1CNCC(F)C1 (centres unmarked),enzyme activity,,1 µM,relative to: DMSO control,remaining activity,98.2%
CS(=O)(=O)Nc1cccc(-c2csc3cnc(Nc4ccc(N5CCN(CCCCCOc6cccc7c6C(=O)N(C6CCC(=O)NC6=O)C7=O)CC5)cc4)nc23)c1 (centres unmarked),"probe labelling, inhibitor, KiNativ chemoproteomics",MOLT-4,1 µM,,inhibition,-3.27%
